{"data": "Literature values that unrelated publications cite", "note": "Lines come from different studies, so protocols differ. pEC50, pIC50: −log10 of the molar value."}
{"SMILES": "CC(C)(O/N=C(\\C(=O)N[C@@H]1C(=O)N2C(C(=O)[O-])=C(C[n+]3ccccc3)CS[C@H]12)c1csc(N)n1)C(=O)O", "tested on": "Enterobacter cloacae", "test system": "clinical isolate RKI-No_33/16", "quantity": "MIC", "result": "4 µg/mL"}
{"SMILES": "COc1ccccc1Oc1cccc(CN2CCC3(CC2)C(=O)NCN3CCc2ccccc2)c1", "tested on": "human CCR8 F290A mutant (TM7)", "assay": "IP accumulation, agonist", "quantity": "pEC50", "result": 7.70}
{"SMILES": "Cc1cccc(C)c1Nc1nc2c(Nc3ccc(C(F)(F)F)cc3)ncnc2s1", "tested on": "TRPV1", "assay": "calcium flux, antagonist", "test system": "HEK293", "setting": "added: capsaicin", "quantity": "pIC50", "result": 7.64}
{"SMILES": "COc1ccccc1Oc1cccc(CN2CCC(NC(=O)C(CCN3CCCC3)c3ccccc3)CC2)c1 (stereo not drawn)", "tested on": "CCR8 human G206A", "assay": "inositol phosphate accumulation, agonist", "quantity": "EC50", "result": "no effect"}
{"SMILES": "Cc1c(C#N)cccc1[C@@H](C)Nc1nnc(C)c2cnc(N3CCOCC3)cc12", "tested on": "NCI-H211", "assay": "3D cell viability", "setting": "14 d", "quantity": "pIC50", "result": "< 6.00"}
{"SMILES": "COc1ccccc1Oc1cccc(CN2CCC(NC(=O)C3CC(=O)Nc4ccccc43)CC2)c1 (stereo not drawn)", "tested on": "human CCR8 S110A mutant (TM3)", "assay": "IP accumulation, agonist", "quantity": "pEC50", "result": 8.44}
{"SMILES": "CC1(C)S[C@@H]2[C@H](NC(=O)[C@H](N)c3ccccc3)C(=O)N2[C@H]1C(=O)O", "tested on": "Acinetobacter baumannii", "test system": "clinical isolate RKI-No_584/16", "quantity": "MIC", "result": "> 16 µg/mL"}
{"SMILES": "O=C(Nc1ccc(C(F)(F)F)cn1)c1ccc(-c2ncccc2C(F)(F)F)cc1", "tested on": "TRPV1", "assay": "calcium flux, antagonist", "test system": "HEK293", "setting": "added: capsaicin", "quantity": "pIC50", "result": 7.62}
{"SMILES": "CNC(C)C1CCC(N)C(OC2C(N)CC(N)C(OC3OCC(C)(O)C(NC)C3O)C2O)O1 (stereo not drawn)", "tested on": "Acinetobacter baumannii", "test system": "clinical isolate RKI-No_14/16", "quantity": "MIC", "result": "> 8 µg/mL"}
{"SMILES": "O=C(NCc1ccc(C(F)(F)F)cc1CCc1ccccc1)Nc1cccc2[nH]ncc12", "tested on": "TRPV1", "assay": "calcium flux, antagonist", "test system": "HEK293", "setting": "added: capsaicin", "quantity": "pIC50", "result": 8.10}
{"SMILES": "COc1ccccc1Oc1cccc(CN2CCC(O)(c3ccccc3C(=O)O)CC2)c1", "tested on": "human CCR8 S110A mutant (TM3)", "assay": "IP accumulation, agonist", "quantity": "pEC50", "result": 8.22}
{"SMILES": "O=C(NCc1ccc(Cl)c(Cl)c1)Nc1cccc2cnccc12", "tested on": "TRPV1", "assay": "calcium flux, antagonist", "test system": "HEK293", "setting": "added: capsaicin", "quantity": "pIC50", "result": 8.40}
{"SMILES": "Nc1cc(C(F)(F)F)c(-c2nc(N3CCOCC3)nc(N3CCOCC3)n2)cn1", "tested on": "U-87 MG", "quantity": "GI50", "result": "1480 nM"}
{"SMILES": "O=C(NCc1ccc(C(F)(F)F)nc1N1CCOCC1)Nc1cccc2[nH]ncc12", "tested on": "TRPV1", "assay": "calcium flux, antagonist", "test system": "HEK293", "setting": "added: capsaicin", "quantity": "pIC50", "result": 7.92}
{"SMILES": "C[C@H]1COCCN1c1nc(-c2cnc(N)cc2C(F)F)nc(N2CCOCC2)n1", "tested on": "RT-4", "quantity": "GI50", "result": "352 nM"}
{"note": "Some of these lines once more:"}
{"SMILES": "COc1ccccc1Oc1cccc(CN2CCC(NC(=O)C(CCN3CCCC3)c3ccccc3)CC2)c1 (stereo not drawn)", "tested on": "CCR8 human G206A", "assay": "inositol phosphate accumulation, agonist", "quantity": "EC50", "result": "no effect"}
{"SMILES": "Cc1c(C#N)cccc1[C@@H](C)Nc1nnc(C)c2cnc(N3CCOCC3)cc12", "tested on": "NCI-H211", "assay": "3D cell viability", "setting": "14 d", "quantity": "pIC50", "result": "< 6.00"}
